# Published values pooled from the literature.
# Lines come from different studies, so protocols differ. Several values in a cell are separate wells, animals, samples, runs or records. ± marks the error that the study gave.
Compound,test system,conditions,scale,plasma concentration
COc1cc(C(=O)O)cc(OC)c1O,human plasma,"median, both sexes",,4570 nM
CCn1c(C(=O)N(C2CC2)C2CC2)cc2c3c(ncn3C)c(Nc3cc(C)n(C)n3)nc21,cancer patients,"oral, 200 mg single dose, day 1, 4.0 h",,1440 ng/mL
CC[C@H](C)[C@H](NC(=O)[C@H](CO)NC(=O)[C@@H](NC(=O)[C@@H]1CCCN1C(=O)[C@H](C)NC(=O)[C@@H](N)CC(N)=O)C(C)C)C(=O)N1CCC[C@H]1C(=O)N[C@@H](CCC(N)=O)C(=O)O,"human, plasma","intravenous infusion, 300 mg over 15 min, after extracorporeal circulation",,6.9 ng/mL and 5.03 ng/mL and 4.86 ng/mL and 8.47 ng/mL and 8.35 ng/mL and 7.01 ng/mL
O=C(O)c1ccc(O)c(O)c1O,human plasma,"mean, both sexes",,134 nM
CS(=O)(=O)n1cc2c(n1)CN([C@H]1CO[C@H](c3cc(F)ccc3F)[C@@H](N)C1)C2,"healthy Japanese men, plasma","oral, 10 mg, 168 h, fasted, single dose",,8.1 nM
COc1cc(CC(=O)O)ccc1OS(=O)(=O)O,human plasma,median,,377 nM
C[C@H](CCC(=O)NCC(=O)O)[C@H]1CC[C@H]2[C@@H]3CC[C@@H]4C[C@H](O)CC[C@]4(C)[C@H]3C[C@H](O)[C@]12C,"men, T/T genotype, plasma","dose not given, geometric mean",,137 ng/mL
COc1ccccc1OCC(O)CN1CCN(CC(=O)Nc2c(C)cccc2C)CC1 (stereo not drawn),"human, plasma","oral, 60 mg/kg/day every 6 h, 1 h post-dose",,2160 ng/mL
O=C(O)[C@H](c1ccccc1Cl)N1CCc2sccc2C1,"cat, plasma","dose not given, day 5, added: clopidogrel plus omeprazole",reference: clopidogrel alone,no effect
O=S(=O)(O)Oc1c(O)cccc1O,human plasma,mean,,2040 nM
CC1(C)CCC(CN2CCN(c3ccc(C(=O)NS(=O)(=O)c4ccc(NCC5CCOCC5)c([N+](=O)[O-])c4)c(Oc4cnc5[nH]ccc5c4)c3)CC2)=C(c2ccc(Cl)cc2)C1,"human, plasma","oral, 200 mg/day",,1700 ± 81.4 nM
CC(C)C[C@H](NC(=O)[C@@H](Cc1c[nH]c2ccccc12)NC(=O)[C@H](Cc1ccc(O)cc1)NC(=O)[C@H](CO)NC(=O)[C@H](Cc1c[nH]c2ccccc12)NC(=O)[C@H](Cc1c[nH]cn1)NC(=O)[C@@H]1CCC(=O)N1)C(=O)N[C@@H](CCCNC(=N)N)C(=O)N1CCC[C@H]1C(=O)NCC(N)=O,"Chinese boys, precocious puberty, plasma","intramuscular, 22.5 mg, 4 h post-injection day 1, mean",,41.6 ng/mL
O=C1CCc2ccc(OCCCCN3CCN(c4cccc(Cl)c4Cl)CC3)cc2N1,"patients, plasma, steady state","oral or long-acting depot injection, dose not given, CYP2D6 UM, median",,173 ng/mL
O=C(O)[C@H]1O[C@@H](Oc2ccc3c(c2)OC[C@H](c2ccc(O)cc2)C3)[C@H](O)[C@@H](O)[C@@H]1O,human plasma,median,,716 nM
COC(=O)C(c1ccccc1Cl)N1CCC(SCC(=O)c2cccc(OC)c2)C(=CC(=O)O)C1 (stereo not drawn),"cat, plasma","dose not given, day 10, added: clopidogrel plus omeprazole",reference: clopidogrel alone,decreased
C[C@H](CCC(=O)NCC(=O)O)[C@H]1CC[C@H]2[C@@H]3[C@H](O)C[C@@H]4C[C@H](O)CC[C@]4(C)[C@H]3CC[C@]12C,"men, T/T genotype, plasma","dose not given, geometric mean",,443 ng/mL
O=C(O)CCc1ccc(O)c(OS(=O)(=O)O)c1,human plasma,median,,1380 nM
O=C(Nc1cnccc1Cl)N1CCN(Cc2ccc3c(c2)OC(F)(F)O3)CC1,"human, plasma","2.5 mg once daily, 24 h post dose day 7",,not detected

# For quick reference, copied from above:
Compound,test system,conditions,scale,plasma concentration
C[C@H](CCC(=O)NCC(=O)O)[C@H]1CC[C@H]2[C@@H]3[C@H](O)C[C@@H]4C[C@H](O)CC[C@]4(C)[C@H]3CC[C@]12C,"men, T/T genotype, plasma","dose not given, geometric mean",,443 ng/mL
O=C(O)CCc1ccc(O)c(OS(=O)(=O)O)c1,human plasma,median,,1380 nM
O=C(Nc1cnccc1Cl)N1CCN(Cc2ccc3c(c2)OC(F)(F)O3)CC1,"human, plasma","2.5 mg once daily, 24 h post dose day 7",,not detected
